Literature values as cited in several papers.
Numbered parts are unrelated; values within a part may stem from several laboratories. ± marks the error that the study gave.

Block 1 — organism: SARS-CoV-2; observed: cytopathic effect; cells: Caco-2; concentration: 10 µM
| SMILES | inhibition [%] |
| --- | --- |
| C[C@@](Cc1ccc(O)c(O)c1)(NN)C(=O)O | 4.6 |
| Cc1ccc(S(=O)(=O)c2ccc([N+](=O)[O-])o2)cc1 | -0.4 |
| O=C1C=Cc2cc(Br)ccc2C1=O | -4.8 |
| CCOC(=S)SSC(=S)OCC | 4.9 |
| FC(F)(F)c1cc(NC(=S)Nc2ccc(Br)cc2-c2nnn[nH]2)cc(C(F)(F)F)c1 | 19.3 |
| COc1ccc(OC)c2c(=S)c3ccccc3[nH]c12 | -7.4 |
| O=C(O)[C@@H](S)[C@@H](S)C(=O)O | 30.1 |
| O=C(O)C1[O][Sb]2[O]C(=O)C([O]2)C(C(=O)O)[O][Sb]2[O]C(=O)C1[O]2 (centres unmarked) | 43.6 |
| C=CCN1CCc2cc(O)c(O)cc2C(c2ccccc2)C1 (centres unmarked) | -5.3 |
| CCC[C@H](NC(=O)/C(C#N)=C/c1cccc(Br)n1)c1ccccc1 | -11.5 |
| C[n+]1c2cc(N)ccc2cc2ccc(N)cc21.Nc1ccc2cc3ccc(N)cc3nc2c1 | 69.4 |
| NC(CO)C(=O)NNCc1ccc(O)c(O)c1O (centres unmarked) | -1.4 |
| CC1(C)C(/C=C/C=C/C=C/C=C2\N(CCCCS(=O)(=O)[O-])c3ccc4ccccc4c3C2(C)C)=[N+](CCCCS(=O)(=O)[O-])c2ccc3ccccc3c21.[Na+] | 2.4 |
| CCc1ccc(/C=C/C(=O)Nc2ccc(C(C)=O)cc2)o1 | 42.4 |
| O=C1C2CC=CCC2C(=O)N1SC(Cl)(Cl)Cl (centres unmarked) | 8.2 |
| O=C(O)c1cc(O)c2c(c1)[C@H]([C@H]1c3cc(C(=O)O)cc(O)c3C(=O)c3c(O[C@@H]4O[C@H](CO)[C@@H](O)[C@H](O)[C@H]4O)cccc31)c1cccc(O[C@@H]3O[C@H](CO)[C@@H](O)[C@H](O)[C@H]3O)c1C2=O | -10.6 |
| O=C(/C=C/c1ccc2ccc(C(F)(F)F)cc2n1)c1ccncc1 | 1.9 |
| COc1cccc2c1C(=O)c1c(O)c3c(c(O)c1C2=O)C[C@@](O)(/C(CO)=N/NC(=O)CCCCCN1C(=O)C=CC1=O)C[C@@H]3O[C@H]1C[C@H](N)[C@H](O)[C@H](C)O1 | 1.6 |
| C[C@H](NC(=O)/C(C#N)=C/c1cccc(Br)n1)c1ccccc1 | 8.2 |
| CSc1ccc(C(=O)c2[nH]c(=O)[nH]c2C)cc1 | 6.4 |
| O=C(O[C@@H]1Cc2c(O)cc(O)cc2O[C@@H]1c1cc(O)c(O)c(O)c1)c1cc(O)c(O)c(O)c1 | 6.3 |
| O=c1[nH]nc(Sc2ncc([N+](=O)[O-])s2)n1-c1ccc2c(c1)OCCO2 | -6.4 |
| CCC(C)SSc1ncc[nH]1 (centres unmarked) | 6.9 |
| Oc1cccc(-c2c3nc(c(-c4cccc(O)c4)c4ccc([nH]4)c(-c4cccc(O)c4)c4nc(c(-c5cccc(O)c5)c5ccc2[nH]5)CC4)C=C3)c1 | 85.9 |
| Nc1nc2c(ncn2[C@@H]2O[C@H](CO)[C@@H](O)[C@H]2O)c(=S)[nH]1 | 111 |

Block 2 — organism: SARS-CoV-2; observed: viral cytopathic effect; cells: Vero E6; concentration: 20 µM
| Structure (SMILES) | inhibition |
| --- | --- |
| O=C(O)c1cc(/N=N/c2ccc(O)c(C(=O)O)c2)ccc1O | -0.11% |
| CC1(C)C(/C=C/C=C/C=C/C=C2\N(CCCCS(=O)(=O)O)c3ccc4ccccc4c3C2(C)C)=[N+](CCCCS(=O)(=O)[O-])c2ccc3ccccc3c21 | -0.23% |
| O=C(N/N=C/c1ccc([N+](=O)[O-])o1)c1cc([N+](=O)[O-])cc([N+](=O)[O-])c1O | -0.18% |

Mixed results
rep papain-like protease: Replicase polyprotein 1ab, papain-like protease (rep, Severe acute respiratory syndrome coronavirus 2, UniProt P0DTD1)
| SMILES | tested on | assay | test system | setting | how to read | endpoint | value |
| --- | --- | --- | --- | --- | --- | --- | --- |
| C=C1CC[C@@H]2[C@](C)(CO)[C@H](O)CC[C@@]2(C)[C@@H]1C/C=C1/C(=O)OC[C@H]1O | SARS-CoV-2 | viral replication | Calu-3 | – | – | IC50 | 1680 nM |
| CC(C)C(=O)OC[C@H]1O[C@@H](n2ccc(NO)nc2=O)[C@H](O)[C@@H]1O | SARS-CoV-2 | – | sample A patients | dose not given | – | hospitalization and death reduction | 50% |
| Nc1ccn(C[C@@H](CO)OCP(=O)(O)O)c(=O)n1 | Vaccinia virus | viral replication | HEL human embryonic lung fibroblasts, Lederle | – | – | IC50 | 3.09 µg/mL |
| CC(=O)Nc1ccc(C)c(C(=O)N[C@H](C)c2cccc3ccccc23)c1 | SARS-CoV PLpro | enzyme activity | – | – | – | IC50 | 2600 ± 100 nM |
| COc1ccc2c(O[C@@H]3C[C@H]4C(=O)N[C@]5(C(=O)NS(=O)(=O)C6CC6)C[C@H]5/C=C\CCCCN(C)C(=O)[C@@H]4C3)cc(-c3nc(C(C)C)cs3)nc2c1C | SARS-CoV-2 | viral replication | 293T-ACE2 | – | – | EC50 | 2300 nM |
| Fc1ncccc1OC[C@@H]1C=CCN1 | rat alpha4beta2* nAChR | radioligand binding | rat brain homogenate | added: [3H]cytisine | – | Ki | 0.5 nM |
| Cc1ccnc2c1NC(=O)c1cccnc1N2C1CC1 | HIV-1 reverse transcriptase K101Q | – | – | – | relative to: K101Q over wild type | IC50 fold change | 1.9 fold |
| C=C[C@@H]1C[C@]1(NC(=O)[C@@H]1C[C@@H]2CN1C(=O)[C@H](C(C)(C)C)NC(=O)O[C@@H]1C[C@H]1CCCCCc1nc3ccc(OC)cc3nc1O2)C(=O)NS(=O)(=O)C1CC1 | SARS-CoV-2 | viral replication | 293T/ACE2 | – | – | IC50 | 16700 nM |
| O=c1c(O)c(-c2ccc(O)c(O)c2)oc2cc(O)cc(O)c12 | pseudorabies virus | viral replication | – | – | – | IC50 | 0.79 µg/mL |
| C[C@H](c1cccc2ccccc12)N(C)Cc1cccc2[nH]ccc12 | SARS-CoV-2 PLpro | enzyme activity, inhibitor | – | – | – | IC50 | 620 nM |
| COC(=O)c1ccc(O)c(O)c1 | rep papain-like protease | – | – | concentration not given | – | inhibition | ~70% |
| CCN(CC)CCCC(C)Nc1ccnc2cc(Cl)ccc12 (centres unmarked) | MERS-CoV | viral replication, ELISA | Vero E6 | – | – | EC50 | 6280 nM |
| CCC(CC)COC(=O)[C@H](C)N[P@](=O)(OC[C@H]1O[C@@](C#N)(c2ccc3c(N)ncnn23)[C@H](O)[C@@H]1O)Oc1ccccc1 | SARS-CoV-2 | – | hospitalized sample A patients | dose not given | – | time to recovery | 11 days |
| CCC(CC)COC(=O)[C@H](C)N[P@](=O)(OC[C@H]1O[C@@](C#N)(c2ccc3c(N)ncnn23)[C@H](O)[C@@H]1O)Oc1ccccc1 | SARS-CoV-2 | viral replication, RT-qPCR | Caco-2 | – | – | EC50 | 46 nM |
| CC(=O)Oc1ccccc1C(=O)Nc1ncc([N+](=O)[O-])s1 | SARS-CoV-2 | cytopathic effect | Vero E6 cells | 72 h | – | EC50 | 6300 nM |
| Nc1nc2nc[nH]c2c(=S)[nH]1 | rep papain-like protease | enzyme activity | – | DTT in buffer | – | IC50 | > 60000 nM |
| C[C@H](c1cccc2ccccc12)N1CCC(C(=O)NCc2cc(F)cc(NC(=O)N3CCN(C)CC3)c2)CC1 | SARS-CoV-2 | viral replication | – | – | – | IC50 | 180 nM |
| CCN(CCO)CCCC(C)Nc1ccnc2cc(Cl)ccc12 (centres unmarked) | Ebola virus | viral replication | Vero E6, eGFP reporter | – | – | EC50 | 22000 nM |
| O=NO | copper-containing nitrite reductase (Ralstonia pickettii, UniProt B2UHR8) | substrate | – | – | – | Km | 26 µM |
| CCC(CC)COC(=O)[C@H](C)N[P@](=O)(OC[C@H]1O[C@@](C#N)(c2ccc3c(N)ncnn23)[C@H](O)[C@@H]1O)Oc1ccccc1 | SARS-CoV-2 | cytopathic effect | Vero E6 cells | 72 h | – | EC50 | 9000 nM |
| CN1CCN(c2ccc(Nc3ncc4cc5n(c4n3)C3(CCCCC3)CNC5=O)nc2)CC1 | MATE1 | transport, inhibitor | – | – | – | IC50 | 175 nM |
| CN1CCCN(c2cccnc2)CC1 | nicotinic acetylcholine receptor alpha7 | binding, radioligand displacement | – | added: [3H]alpha-bungarotoxin | – | IC50 | 4600 nM |

Excerpt of the above (mixed results):
| SMILES | tested on | assay | test system | setting | how to read | endpoint | value |
| --- | --- | --- | --- | --- | --- | --- | --- |
| CCC(CC)COC(=O)[C@H](C)N[P@](=O)(OC[C@H]1O[C@@](C#N)(c2ccc3c(N)ncnn23)[C@H](O)[C@@H]1O)Oc1ccccc1 | SARS-CoV-2 | cytopathic effect | Vero E6 cells | 72 h | – | EC50 | 9000 nM |
| CN1CCN(c2ccc(Nc3ncc4cc5n(c4n3)C3(CCCCC3)CNC5=O)nc2)CC1 | MATE1 | transport, inhibitor | – | – | – | IC50 | 175 nM |
| CN1CCCN(c2cccnc2)CC1 | nicotinic acetylcholine receptor alpha7 | binding, radioligand displacement | – | added: [3H]alpha-bungarotoxin | – | IC50 | 4600 nM |
